Published values gathered from unrelated publications.
Lines come from different studies, so protocols differ. ± marks the error that the study gave.

SMILES = CCCC[C@H](NC(=O)CN1CCC(NC(=O)CN2CCN(CC(=O)O)CCN(CC(=O)O)CCN(CC(=O)O)CC2)CC1)C(=O)N[C@H]1CC(=O)NCCCC[C@@H](C(N)=O)NC(=O)[C@H](Cc2c[nH]c3ccccc23)NC(=O)[C@H](CCCNC(=N)N)NC(=O)[C@@H](Cc2ccccc2)NC(=O)[C@H](Cc2c[nH]cn2)NC1=O [gallium-68 labelled]; test system = male C57BL/6J mice, B16-F10 tumours, intestine; setting = intravenous, 1 h, blocking study, together with: 100 µg non-radioactive Ga-peptide; tissue uptake = 1.2 ± 0.6 %ID/g
SMILES = CCCC[C@@H]1NC(=O)[C@@H](NC(=O)[C@H](CCC(=O)O)NC(=O)CNC(=O)CN2CCN(CC(=O)O)CCN(CC(=O)O)CCN(CC(=O)O)CC2)CCCCNC(=O)C[C@@H](C(N)=O)NC(=O)[C@H](C(C)C)NC(=O)[C@@H]2CCCN2C(=O)[C@H](CCCNC(=N)N)NC(=O)CNC(=O)[C@H](Cc2c[nH]c3ccccc23)NC(=O)[C@H](CCCNC(=N)N)NC(=O)[C@@H](Cc2ccccc2)NC(=O)[C@H](Cc2c[nH]cn2)NC(=O)[C@H](CCC(=O)O)NC1=O [gallium-67 labelled]; test system = C57 mice, B16/F10 lung metastases, muscle; setting = intravenous, 0.037 MBq/mouse, 4 h; tissue uptake = 0.17 ± 0.11 %ID/g
SMILES = O=C([O-])CN1CCN(CC(=O)[O-])CCN(CC(=O)NCCc2ccc3c(c2)C2C=CCC2C(c2cc4c(cc2Br)OCO4)N3)CCN(CC(=O)[O-])CC1.[111In+3] (stereo not drawn); assay = SPECT/CT imaging; test system = mice with Hec50 tumour xenograft, intestine; setting = 4 h; tissue uptake = 83.9 % ID
SMILES = NC12CNCCNCC(NCc3ccc(CNC(=O)CCCC(=O)NCc4ccc(-c5nncnn5)cc4)cc3)(CNCCNC1)CNCCNC2.[64Cu+2]; test system = athymic nude mice, SW1222 xenograft, large intestine with contents; setting = 4 h, pretargeting with huA33-TCO, 24 h interval; tissue uptake = 0.48 ± 0.09 %ID/g
SMILES = N=C(N)NCCC[C@@H]1NC(=O)[C@H](CCCCNC(=O)CON=C[C@H](F)[C@@H](O)[C@H](O)[C@H](O)CO)NC(=O)[C@@H](Cc2ccc(O)cc2)NC(=O)[C@H](CC(=O)O)NC(=O)CNC1=O [fluorine-18 labelled]; test system = nude mice U-87 MG tumour, heart; setting = intravenous, 0.5 h; tissue uptake = 1.11 ± 0.22 %ID/g
SMILES = CC(C)[C@H](NC(=O)[C@@H]1CCCN1C(=O)[C@H](CCCNC(=N)N)NC(=O)[C@H](CS)NC(=O)[C@H](Cc1c[nH]c2ccccc12)NC(=O)[C@H](CCCNC(=N)N)NC(=O)[C@@H](Cc1ccccc1)NC(=O)[C@H](Cc1c[nH]cn1)NC(=O)[C@H](CCC(=O)O)NC(=O)[C@H](CS)NC(=O)[C@H](CS)NC(=O)[C@@H]1CC(=O)N[C@@H](CCCNC(=N)N)C(=O)NCC(=O)N[C@@H](CC(=O)O)C(=O)N[C@H](Cc2ccc(O)cc2)C(=O)N1)C(N)=O [technetium-99m labelled]; test system = C57 mice B16/F1 melanoma female, intestines; setting = iv, 0.037 MBq, 0.5 h; tissue uptake = 3.8 ± 0.32 %ID
SMILES = N=C(N)NCCC[C@H](NC(=O)CON=C[C@H](F)[C@@H](O)[C@H](O)[C@H](O)CO)C(=O)NCC(=O)N[C@@H](CC(=O)O)C(=O)O [fluorine-18 labelled]; test system = nude mice U-87 MG tumour, heart; setting = intravenous, 2 h; tissue uptake = 3.67 ± 0.26 %ID/g
SMILES = N#C[C@@H]1CCCN1C(=O)CNC(=O)c1ccnc2ccc(OCCCN3CCN(C(=O)CCc4ccc(O)c(CN5CCN6CC(=O)[O][Al-]([18F])([O]C(=O)C5)[O]c5ccc(CCC(=O)N7CCN(CCCOc8ccc9nccc(C(=O)NCC(=O)N%10CCC[C@H]%10C#N)c9c8)CC7)cc5C6)c4)CC3)cc12 (stereo partly drawn); test system = BALB/c nude mice, U-87 MG xenograft, tumour; setting = 1 h, blocked 60 min, together with: DOTA-FAPI-04 40 nmol co-injected; tissue uptake = 4.18 ± 0.3 %ID/g
SMILES = CCCC[C@H](NC(=O)CNC(=O)CNC(=O)CN1CCN(CC(=O)O)CCN(CC(=O)O)CCN(CC(=O)O)CC1)C(=O)N[C@H]1CC(=O)NCCCC[C@@H](C(N)=O)NC(=O)[C@H](Cc2c[nH]c3ccccc23)NC(=O)[C@H](CCCNC(=N)N)NC(=O)[C@@H](Cc2ccccc2)NC(=O)[C@H](Cc2c[nH]cn2)NC1=O [gallium-67 labelled]; test system = female C57 mice, B16/F1 melanoma, blood; setting = intravenous, 0.037 MBq, 24 h; tissue uptake = 0.29 ± 0.05 %ID/g
SMILES = CN1C(=O)[C@@H](Cc2ccc(O)c(I)c2)NC(=O)CNC(=O)[C@H](Cc2ccc3ccccc3c2)NC(=O)[C@H](CCCNC(=N)N)NC(=O)[C@H]1CCCNC(=O)c1ccc(CNC(=O)CN2CCN(CC(=O)O)CCN(CC(=O)O)CCN(CC(=O)O)CC2)cc1 [lutetium-177 labelled]; assay = item: 177Lu radioactivity; test system = female CB-17 SCID mice, Daudi xenograft, blood; setting = intravenous, 0.16 nmol per mouse, 6 h; tissue uptake = 0.09 ± 0.01 %ID/g
SMILES = O=C([O-])c1cccc(CN(CCN(Cc2cn(Cc3ccccc3)nn2)Cc2cccc(C(=O)[O-])n2)Cc2cn(Cc3ccccc3)nn2)n1.[64Cu+2]; test system = healthy athymic nude mice, liver; setting = intravenous, 15 min; tissue uptake = 17.7 %ID/g
SMILES = CCCC[C@H](NC(=O)CNC(=O)CNC(=O)CN1CCN(CC(=O)O)CCN(CC(=O)O)CC1)C(=O)N[C@H]1CC(=O)NCCCC[C@@H](C(N)=O)NC(=O)[C@H](Cc2c[nH]c3ccccc23)NC(=O)[C@H](CCCNC(=N)N)NC(=O)[C@@H](Cc2ccccc2)NC(=O)[C@H](Cc2c[nH]cn2)NC1=O [gallium-67 labelled]; test system = female C57 mice, B16/F1 melanoma, stomach; setting = intravenous, 0.037 MBq, 24 h; tissue uptake = 1.21 ± 0.4 %ID/g

For quick reference, copied from above:
SMILES = O=C([O-])c1cccc(CN(CCN(Cc2cn(Cc3ccccc3)nn2)Cc2cccc(C(=O)[O-])n2)Cc2cn(Cc3ccccc3)nn2)n1.[64Cu+2]; test system = healthy athymic nude mice, liver; setting = intravenous, 15 min; tissue uptake = 17.7 %ID/g
SMILES = CCCC[C@H](NC(=O)CNC(=O)CNC(=O)CN1CCN(CC(=O)O)CCN(CC(=O)O)CCN(CC(=O)O)CC1)C(=O)N[C@H]1CC(=O)NCCCC[C@@H](C(N)=O)NC(=O)[C@H](Cc2c[nH]c3ccccc23)NC(=O)[C@H](CCCNC(=N)N)NC(=O)[C@@H](Cc2ccccc2)NC(=O)[C@H](Cc2c[nH]cn2)NC1=O [gallium-67 labelled]; test system = female C57 mice, B16/F1 melanoma, blood; setting = intravenous, 0.037 MBq, 24 h; tissue uptake = 0.29 ± 0.05 %ID/g
